# Assay results gathered from unrelated publications.
# Lines come from different studies, so protocols differ. ± marks the error that the study gave.
# Sequence of UniProt P61073 (whole entry, looked up): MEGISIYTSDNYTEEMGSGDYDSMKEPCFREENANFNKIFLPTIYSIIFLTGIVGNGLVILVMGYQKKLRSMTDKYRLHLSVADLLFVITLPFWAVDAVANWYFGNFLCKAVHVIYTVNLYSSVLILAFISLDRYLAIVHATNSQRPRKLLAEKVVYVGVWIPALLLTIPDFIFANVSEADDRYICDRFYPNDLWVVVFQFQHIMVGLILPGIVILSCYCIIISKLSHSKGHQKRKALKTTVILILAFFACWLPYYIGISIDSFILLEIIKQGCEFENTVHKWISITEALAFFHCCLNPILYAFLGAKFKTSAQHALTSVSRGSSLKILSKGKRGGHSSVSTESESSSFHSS
# Sequence of UniProt O94956 (whole entry, looked up): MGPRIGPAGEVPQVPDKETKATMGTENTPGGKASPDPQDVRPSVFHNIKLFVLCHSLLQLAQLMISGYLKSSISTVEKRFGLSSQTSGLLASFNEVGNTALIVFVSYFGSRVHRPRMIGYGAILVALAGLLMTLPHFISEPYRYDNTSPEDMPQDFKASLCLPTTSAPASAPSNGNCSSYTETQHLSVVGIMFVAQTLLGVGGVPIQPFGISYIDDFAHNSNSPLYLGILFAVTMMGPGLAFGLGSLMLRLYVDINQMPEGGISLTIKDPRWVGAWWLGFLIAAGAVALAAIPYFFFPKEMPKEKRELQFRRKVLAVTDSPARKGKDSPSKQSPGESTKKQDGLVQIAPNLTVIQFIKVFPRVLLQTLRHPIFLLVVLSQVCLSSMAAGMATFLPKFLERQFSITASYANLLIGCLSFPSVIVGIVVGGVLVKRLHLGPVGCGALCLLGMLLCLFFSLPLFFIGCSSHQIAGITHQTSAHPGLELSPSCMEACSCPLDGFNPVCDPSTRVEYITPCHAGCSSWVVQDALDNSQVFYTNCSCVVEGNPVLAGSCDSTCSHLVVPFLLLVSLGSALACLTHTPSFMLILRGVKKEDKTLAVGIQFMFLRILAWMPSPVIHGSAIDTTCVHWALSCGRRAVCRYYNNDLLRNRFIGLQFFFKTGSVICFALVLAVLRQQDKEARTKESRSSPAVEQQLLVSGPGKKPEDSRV
# Sequence of UniProt P20813 (whole entry, looked up): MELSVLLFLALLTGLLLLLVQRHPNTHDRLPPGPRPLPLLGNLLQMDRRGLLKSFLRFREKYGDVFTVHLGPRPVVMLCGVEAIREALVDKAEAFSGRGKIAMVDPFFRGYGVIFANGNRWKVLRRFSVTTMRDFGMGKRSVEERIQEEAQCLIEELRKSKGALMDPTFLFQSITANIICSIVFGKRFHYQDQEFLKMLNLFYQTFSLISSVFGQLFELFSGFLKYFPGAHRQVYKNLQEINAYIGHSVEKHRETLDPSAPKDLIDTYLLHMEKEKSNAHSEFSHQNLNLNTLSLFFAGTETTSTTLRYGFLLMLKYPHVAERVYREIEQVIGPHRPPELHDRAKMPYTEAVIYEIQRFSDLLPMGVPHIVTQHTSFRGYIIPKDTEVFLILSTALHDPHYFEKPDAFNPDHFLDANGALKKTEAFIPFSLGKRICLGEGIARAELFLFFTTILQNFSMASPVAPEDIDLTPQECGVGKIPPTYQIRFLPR
# Sequence of UniProt Q9Y6L6 (whole entry, looked up): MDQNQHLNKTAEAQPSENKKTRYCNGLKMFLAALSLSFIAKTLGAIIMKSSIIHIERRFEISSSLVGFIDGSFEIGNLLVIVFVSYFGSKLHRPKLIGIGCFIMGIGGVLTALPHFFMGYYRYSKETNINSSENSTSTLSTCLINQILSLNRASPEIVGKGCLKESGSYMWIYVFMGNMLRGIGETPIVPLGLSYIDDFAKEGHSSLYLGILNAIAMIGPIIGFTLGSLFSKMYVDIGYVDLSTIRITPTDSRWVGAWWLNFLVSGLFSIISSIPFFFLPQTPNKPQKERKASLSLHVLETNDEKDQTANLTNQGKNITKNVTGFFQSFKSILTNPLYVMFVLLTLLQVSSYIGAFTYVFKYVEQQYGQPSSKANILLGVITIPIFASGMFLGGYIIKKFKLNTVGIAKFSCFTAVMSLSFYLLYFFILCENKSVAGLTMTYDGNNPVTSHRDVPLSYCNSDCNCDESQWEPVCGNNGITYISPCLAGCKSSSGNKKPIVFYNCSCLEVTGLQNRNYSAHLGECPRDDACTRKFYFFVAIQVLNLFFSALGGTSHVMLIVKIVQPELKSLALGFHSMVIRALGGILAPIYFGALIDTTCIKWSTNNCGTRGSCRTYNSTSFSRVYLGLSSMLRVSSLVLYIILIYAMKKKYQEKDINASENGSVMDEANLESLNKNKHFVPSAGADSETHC
SMILES,target,test,test system,setting,how to read,endpoint,result
CC(CCC(=O)NCC(=O)O)C1CCC2C3CCC4CC(OC5OC(C(=O)O)C(O)C(O)C5O)CCC4(C)C3CC(O)C12C (centres unmarked),"SLCO1B1 (Homo sapiens, UniProt Q9Y6L6)","transporter uptake, inhibitor",,,,IC50,≤ 28 µM
C=C(C)[C@@H]1CCC(C(=O)O)=C[C@H]1c1c(O)cc(CCCCC)cc1O,CYP3A4/CYP2C19,,human,"dose not given, single dose, with: rifampicin 600 mg once daily",,half-life,16 h
CN1C(=O)[C@@H](Cc2ccc(O)cc2)NC(=O)CNC(=O)[C@H](Cc2ccc3ccccc3c2)NC(=O)[C@H](CCCNC(=N)N)NC(=O)[C@H]1CCCNC(=O)c1ccc(CNC(=O)CN2CCN(CC(=O)O)CCN(CC(=O)O)CCN(CC(=O)O)CC2)cc1 [gallium-68 labelled],"CXCR4 (Homo sapiens, UniProt P61073)",PET imaging,"human, liver",,,SUVmean,1.46
[64Cu+2].c1ccc(CNCc2ccc(CN3CCCNCCNCCCNCC3)cc2)nc1,CXCR4,,"NOD/SCID mouse, U87 and U87-stb-CXCR4 xenografts, heart","iv, 90 min, no blocking dose, ex vivo",,tissue uptake,1.08 ± 0.38 %ID/g
C=CC(=O)Nc1cc(Nc2nccc(-c3cn(C)c4ccccc34)n2)c(OCC(F)(F)F)nc1N(C)CCN(C)C,"Cytochrome P450 2B6 (CYP2B6, Homo sapiens, UniProt P20813)","enzyme activity, inhibitor","human, liver microsomes",10 µM,,activity vs control,101%
CC(CCC(=O)NCC(=O)O)C1CCC2C3C(O)CC4CC(OC5OC(C(=O)O)C(O)C(O)C5O)CCC4(C)C3CCC12C (centres unmarked),"SLCO2B1 (Homo sapiens, UniProt O94956)",substrate,transfected HEK293 cells,"1 µM, 2 min",baseline: wild-type HEK293 cells,uptake ratio,2.8 ± 0.5
CNC(=O)CC[C@@H](NC(=O)[C@@H](Cc1ccc(OP(=O)(O)O)cc1)NC(=O)[C@@H](Cc1ccccc1)NC(=O)[C@@H](Cc1ccccc1)NC(=O)Cc1ccc2ccccc2c1)C(=O)NC,alkaline phosphatase,substrate,SAOS-2,"200 µM, 24 h",,dephosphorylated fraction,89.6%
C=C(C)[C@@H]1CCC(CO)=C[C@H]1c1c(O)cc(CCCCC)cc1O,CYP3A4/CYP2C19,,human,"dose not given, single dose, with: rifampicin steady state",,decrease in AUC(0-tau),63%

# Repeated from above:
SMILES,target,test,test system,setting,how to read,endpoint,result
C=C(C)[C@@H]1CCC(C(=O)O)=C[C@H]1c1c(O)cc(CCCCC)cc1O,CYP3A4/CYP2C19,,human,"dose not given, single dose, with: rifampicin 600 mg once daily",,half-life,16 h
